Assay results pooled from the literature.
Compare with care: the assays were run in different laboratories.
ABL1 non-phosphorylated: Tyrosine-protein kinase ABL1, non-phosphorylated (ABL1, Homo sapiens, UniProt P00519)
ABL1 phosphorylated: Tyrosine-protein kinase ABL1, phosphorylated (ABL1, Homo sapiens, UniProt P00519)
ABL1 T315I phosphorylated: Tyrosine-protein kinase ABL1, phosphorylated (ABL1, Homo sapiens, UniProt P00519, T315I)

Compound	target	assay	setting	scale	remaining binding [%]
Cc1ccc(C(=O)Nc2cccc(C(F)(F)F)c2)cc1Nc1cncc(C(N)=O)c1	ABL1 (Homo sapiens, UniProt P00519, M351T)	binding, competition with immobilised ligand	1 µM	–	27
C=CC(=O)N1CCc2ccc(-n3c(=O)ccc4cnc5ccc(-c6cnn(C)c6)cc5c43)cc21	Tyrosine-protein kinase ABL1, non-phosphorylated (ABL1, Homo sapiens, UniProt P00519, Q252H)	KINOMEscan, measured: (Q252H)-nonphosphorylated	1 µM	baseline: control	76
Cc1ccc(-c2c(/C=C(\C#N)C(=O)NC(C)C)n(CCCO)c3ncnc(N)c23)cc1	ABL1 non-phosphorylated	cell-free assay, competition with immobilised ligand	1 µM	–	100
Nc1ncc2c(n1)-c1c([nH]c3ccc(C4=CCOCC4)cc13)CCC2	Tyrosine-protein kinase ABL1, non-phosphorylated (ABL1, Homo sapiens, UniProt P00519, H396P)	binding, competition with immobilised ligand	1 µM	–	83
CNS(=O)(=O)Nc1nccc(Cc2c(C)c3ccc(Oc4ncccc4F)cc3oc2=O)c1F	ABL1 phosphorylated	binding, competition with immobilised ligand	10 µM	–	94
CN1CCN(Cc2ccc(NC(=O)c3cccc(C#Cc4cnc(N)c5ncccc45)c3)cc2C(F)(F)F)CC1	ABL1 non-phosphorylated	cell-free assay, competition with immobilised ligand	0.5 µM	–	0.1
CNc1ccc(-c2n[nH]c3c2CCN(C(=O)c2ccccc2)C3)cc1	ABL1 phosphorylated	cell-free assay, competition with immobilised ligand	10 µM	–	27
C=C1CCCCCCCCCC(CO)C1=O (stereo not drawn)	ABL1 T315I phosphorylated	cell-free assay, competition with immobilised ligand	10 µM	–	100
CC(=O)N1c2ccc(-c3ccc(CNC(=O)c4cn5cc(-c6cnc(N)nc6)nc(N6CCOCC6)c5n4)cc3)cc2CC[C@@H]1C	ABL1 phosphorylated	KINOMEscan	10 µM	–	62
CNC(=O)C1CCN(c2cc(C)c(F)cc2NC(=O)c2ccc(-c3cc(O)ccc3C)c(C)c2)CC1	Tyrosine-protein kinase ABL1, phosphorylated (ABL1, Homo sapiens, UniProt P00519, F317I)	binding, competition with immobilised ligand	1 µM	–	20
C=CC(=O)N1CCCC(n2c(=O)c3ncccc3n(Cc3ccc(Oc4ccccc4)cc3)c2=O)C1 (stereo not drawn)	ABL1 T315I phosphorylated	cell-free assay, competition with immobilised ligand	1 µM	–	90
COc1ccc(NC(=O)Nc2ccc3c(c2)C(=O)N(C(C)CO)CC(C)C(CN(C)Cc2ccc4c(c2)OCO4)O3)cc1 (stereo not drawn)	Tyrosine-protein kinase ABL1, phosphorylated (ABL1, Homo sapiens, UniProt P00519, E255K)	binding, competition with immobilised ligand	10 µM	–	80
COc1c(Cl)cccc1Nc1c(-c2ccncc2C#C[C@@]2(C)CCCN2C(=O)/C=C/CN(C)C)[nH]c2c1C(=O)NCC2	ABL1 (Homo sapiens, UniProt P00519, Y253F)	binding, competition with immobilised ligand	3 µM	–	56
CC(C)=CC1OC(C)(C)C2C=C3C(=O)C(Cl)=CC(O)C3C3C(O)C4OC4C(=O)C132 (stereo not drawn)	Tyrosine-protein kinase ABL1, phosphorylated (ABL1, Homo sapiens, UniProt P00519, F317L)	cell-free assay, competition with immobilised ligand	10 µM	–	86
CCN1CCN(Cc2ccc(NC(=O)c3ccc(C)c(NC(=O)c4cncc(-c5cccs5)c4)c3)cc2C(F)(F)F)CC1	ABL1 (Homo sapiens, UniProt P00519, E255K)	binding, competition with immobilised ligand	1 µM	–	0.75

For quick reference, copied from above:
Compound	target	assay	setting	scale	remaining binding [%]
CC(=O)N1c2ccc(-c3ccc(CNC(=O)c4cn5cc(-c6cnc(N)nc6)nc(N6CCOCC6)c5n4)cc3)cc2CC[C@@H]1C	ABL1 phosphorylated	KINOMEscan	10 µM	–	62
CNc1ccc(-c2n[nH]c3c2CCN(C(=O)c2ccccc2)C3)cc1	ABL1 phosphorylated	cell-free assay, competition with immobilised ligand	10 µM	–	27
